Experimental data of several laboratories.
Compare with care: the assays were run in different laboratories. Numbers after ± are the reported error.

Under “treatment-related adverse events”, `CCCCCCCCCCCCCCCC(=O)N[C@@H](CCC(=O)NCCCC[C@H](NC(=O)[C@H](CC(=O)O)NC(=O)[C@H](CO)NC(=O)[C@@H](NC(=O)[C@H](Cc1ccccc1)NC(=O)[C@@H](NC(=O)CNC(=O)[C@H](CCC(N)=O)NC(=O)[C@H](CO)NC(=O)[C@@H](N)Cc1c[nH]cn1)[C@@H](C)O)[C@@H](C)O)C(=O)N[C@@H](CO)C(=O)N[C@@H](CCC(=O)O)C(=O)N[C@@H](Cc1ccc(O)cc1)C(=O)N[C@@H](CC(C)C)C(=O)N[C@@H](CC(=O)O)C(=O)N[C@@H](CO)C(=O)N[C@@H](CCC(=O)O)C(=O)N[C@@H](CCCNC(=N)N)C(=O)N[C@@H](C)C(=O)N[C@@H](CCCNC(=N)N)C(=O)N[C@@H](CC(=O)O)C(=O)N[C@@H](Cc1ccccc1)C(=O)N[C@H](C(=O)N[C@@H](C)C(=O)N[C@@H](Cc1c[nH]c2ccccc12)C(=O)N[C@@H](CC(C)C)C(=O)N[C@@H](CCC(=O)O)C(=O)N[C@@H](C)C(=O)NCC(=O)NCC(=O)O)C(C)C)C(=O)O` is recorded as 9.1% (refers to: Tachycardia; humans CrCl 30 to 45 mL/min; subcutaneous, 100 µg single dose).
`CC(C)C[C@H](NC(=O)[C@H](CCCCN)NC(=O)OCC1c2ccccc2-c2ccccc21)C(=O)N[C@H](C(=O)N[C@@H](Cc1ccccc1)C(=O)N[C@@H](Cc1ccccc1)C(=O)N[C@@H](CCCCN)C(=O)NCC(=O)N[C@@H](Cc1ccccc1)C(=O)N[C@@H](C)C(=O)N[C@@H](Cc1c[nH]c2ccccc12)C(=O)N[C@@H](CC(N)=O)C(=O)N[C@H](C(=O)N[C@H]1CSSC[C@@H](C(=O)N[C@@H](Cc2c[nH]cn2)C(=O)N[C@@H](CCCNC(=N)N)C(=O)N[C@@H](CCCNC(=N)N)C(=O)N[C@@H](C)C(=O)N[C@@H](CC(N)=O)C(N)=O)NC(=O)[C@H](C(C)C)NC(=O)[C@H](CCCNC(=N)N)NC(=O)[C@H](C(C)C)NC(=O)CNC(=O)[C@H](CC(N)=O)NC(=O)[C@H](CCCNC(=N)N)NC(=O)[C@H](Cc2ccc(O)cc2)NC(=O)[C@H](C(C)C)NC1=O)C(C)C)C(C)C` has an eosinophils of 2.44 ± 0.26% (ICR mice, blood; intraperitoneal, 10 mg/kg, day 5).
`COc1ccc2nc3cc(Cl)ccc3c(Nc3cc(CN4CCCC4)c(O)c(CN4CCCC4)c3)c2n1`: “mean corpuscular haemoglobin” 16.8 pg (mouse, blood; intraperitoneal, 57 mg/kg).
Under “mean amount excreted in urine”, `N=C(N)NCCC[C@@H](NC(=O)[C@@H](N)Cc1ccccc1)C(=O)N[C@@H](Cc1ccccc1)C(=O)N[C@@H](CCCCN)C(N)=O` is recorded as 1.46e+06 ng (LC-MS; human; 25 mg, 11.83 h).
`COc1cc2c(Oc3ccc4[nH]c(C)cc4c3F)ccnc2cc1OCC1(N)CC1` — result for “grade 1 or 2 bone pain”: 25% (paediatric recurrent refractory sarcoma; 10 mg).
`CC(C)C[C@@H]1NC(=O)CNC(=O)[C@H](CC(N)=O)NC(=O)[C@H](CCCNC(=N)N)NC(=O)[C@H]([C@@H](C)O)NC(=O)[C@@H]2CSSC[C@@H]3NC(=O)[C@H](CCCCN)NC(=O)CNC(=O)CNC(=O)[C@H](C(C)C)NC(=O)[C@@H]4CSSC[C@H](NC(=O)[C@H]([C@@H](C)O)NC(=O)[C@H](CSSC[C@H](NC(=O)[C@H](C(C)C)NC(=O)[C@@H]5CCCN5C1=O)C(=O)NCC(=O)N[C@@H](CCC(=O)O)C(=O)N[C@@H]([C@@H](C)O)C(=O)N4)NC(=O)CNC(=O)[C@@H]1CCCN1C(=O)[C@H]([C@@H](C)O)NC(=O)[C@H](CC(N)=O)NC3=O)C(=O)N[C@@H](CO)C(=O)N[C@@H](Cc1c[nH]c3ccccc13)C(=O)N1CCC[C@H]1C(=O)N[C@@H](C(C)C)C(=O)N2` has a remaining peptide of 93.4 ± 0.6% (HPLC; ammonium bicarbonate; 180 µM, 7 days, pH 9.0, 25 °C, deamidation stability).
For `CCN(CCO)CCCC(C)Nc1ccnc2cc(Cl)ccc12` (stereo not drawn), the anemia patients was 29% (newly diagnosed glioblastoma patients; oral, 400 mg/dose, grade 1, with: radiotherapy and temozolomide).
`N.N.[Cl][Pt][Cl]` gave a BUN of 33.1 ± 12 mg/dL (nude mice, serum; dose not given, 10 days).
For `O=C(Nc1ccccc1)C1CCN(C(=O)Oc2cccnc2)CC1`, “subjects with Tachycardia adverse event” read 7.1% (adverse event reporting; healthy women; oral, 20 mg, 7 days).
The remaining peptide of `CC(C)C[C@@H]1NC(=O)CNC(=O)[C@H](CC(N)=O)NC(=O)[C@H](CCCNC(=N)N)NC(=O)[C@H](CCCCN)NC(=O)[C@@H]2CSSC[C@@H]3NC(=O)[C@H]([C@@H](C)O)NC(=O)CNC(=O)CNC(=O)[C@H](C(C)C)NC(=O)[C@@H]4CSSC[C@H](NC(=O)[C@H]([C@@H](C)O)NC(=O)[C@H](CSSC[C@H](NC(=O)[C@H](C(C)C)NC(=O)[C@@H]5CCCN5C1=O)C(=O)NCC(=O)N[C@@H](CCC(=O)O)C(=O)N[C@@H]([C@@H](C)O)C(=O)N4)NC(=O)CNC(=O)[C@@H]1CCCN1C(=O)[C@H]([C@@H](C)O)NC(=O)[C@H](CC(N)=O)NC3=O)C(=O)N[C@@H](CO)C(=O)N[C@@H](Cc1c[nH]c3ccccc13)C(=O)N1CCC[C@H]1C(=O)N[C@@H](C(C)C)C(=O)N2` is reported as 73 ± 0.4% (HPLC; ammonium bicarbonate; 180 µM, 14 days, pH 9.0, 25 °C, deamidation stability).
`COc1ncccc1-c1cnn2ccc(N3CCN(C(=O)OC(C)C)CC3)nc12` has a drug concentration of 7.6 µM (rat, CCI mechanical allodynia model, brain; oral, 30 mg/kg, 240 min).
With `CCN1[C@@H](C(=O)NC23CCC(C(=O)O)(CC2)CC3)[C@H](c2cccc(Cl)c2F)[C@]2(C(=O)Nc3cc(Cl)ccc32)C12CCCCC2` the Embolism incidence was 0% (patients with advanced solid tumours; oral, 100 mg).
For `CCOc1cc(Oc2ccc(C(F)(F)F)cc2Cl)ccc1[N+](=O)[O-]`, “body weight gain” read 66.1% (rat male; 15 mg/kg, 8 days).
The CHCM of `CCc1ccc(CC/C=C/c2ccc3c(c2)C(=O)CC3)cc1` is reported as 332 g/L (Sprague-Dawley rat, female; oral, 30 mg/kg/day, 14 days).
For `Clc1ccc(-c2cc(Cl)c(Cl)cc2Cl)cc1Cl`, the log K(PDMS-water) was 5.99 ± 0.02 (fresh water; 20 °C, SSP sampler, 100 µm).
`CC(=O)c1c(C)c2cnc(Nc3ccc(C4CCN(CCS(C)(=O)=O)CC4)cn3)nc2n(C2CCCC2)c1=O` gave a clearance of 1480 mL/min (human patients, plasma; oral, 100 mg twice daily, day 21 multiple doses).
`Cn1cncc1-c1c(F)cncc1NC(=O)c1c(N)nn2cc(F)cnc12` — result for “platelet count decreased DLT”: 2% (human patients; oral, dose not given, 21 days, all doses).
For `CO[C@H]1C[C@@H]2CC[C@@H](C)[C@@](O)(O2)C(=O)C(=O)N2CCCC[C@H]2C(=O)O[C@H]([C@H](C)C[C@@H]2CC[C@@H](OC(=O)NCCOCCOCCOCCOCCOCCOCCOCCOCCC(=O)N3CCc4cc(Cn5nc(-c6ccc7oc(N)nc7c6)c6c(N)ncnc65)ccc4C3)[C@H](OC)C2)C[C@@H](O)[C@H](C)/C=C(\C)[C@@H](O)[C@@H](OC)C(=O)[C@H](C)C[C@H](C)/C=C/C=C/C=C/1C`, “anaemia TEAE incidence” read 16% (dose-escalation trial; patients with advanced solid tumours; intravenous, all doses weekly, grade ≥3).
Under “elimination rate constant”, `CC/C(=C(\c1ccccc1)c1ccc(OCCN(C)C)cc1)c1ccccc1` is recorded as 1.73e-05 s⁻¹ (CD-1 mouse, male, plasma; intraperitoneal, 10 mg/kg).
`CN1CC[C@@H](c2c(O)cc(O)c3c(=O)cc(-c4ccc(C(F)(F)F)cc4Cl)oc23)[C@@H]1CO`: “patients with adverse event” 0% (refers to: rectal abscess; AML; oral, 150 mg, grade 3 to 4, intermittent dosing).
`CC(C)CC(=O)OC[C@H]1O[C@@](C#N)(c2ccc3c(N)ncnn23)[C@H](O)[C@@H]1O` has an unbound fraction of 0.0794 (plasma protein binding; rat plasma; 0.9 µM).
For `C/C=C1/CN2CC[C@]34C(=C(C(=O)OC)[C@H]1C[C@H]23)Nc1ccccc14`, the CLint was 22.8 ± 0.5 µL/min/mg (rat liver microsomes, male; 1 µM, pH 7.4).
Under “blood chemistry level”, `O=S(=O)(Nc1ccccc1)c1ccc(NC(=S)Nc2ccccc2)cc1` is recorded as 19 mg/dL (refers to: BUN; male mouse, blood; oral, 80 mg/kg daily, 14 days).
For `[O-][S+]1CCc2nc(N3CCC(c4ncc(Cl)cn4)CC3)nc(NC3(CO)CCC3)c21` (stereo not drawn), “adverse event incidence” read 6.3% (refers to: Nausea; healthy male humans; multiple doses, all groups).
The body weight of `COc1cc(C2C3=C(COC3=O)N(CCO)c3cc4c(cc32)CCC4)cc(OC)c1OC` (stereo not drawn) is reported as 225 g (female Sprague-Dawley rats; intraperitoneal, 100 mg/kg, 72 h, single dose, mean).
The toxicity of `CN1CCN(c2ccc(Nc3nccc(-c4cccnc4)n3)cc2C(F)(F)F)CC1` is reported as 4.9 ± 4.9% (zebrafish embryos; 50 µM, 5 d).
`Clc1ccc(-c2ccc(Cl)c(Cl)c2Cl)c(Cl)c1Cl`: “literature range factor” 2 (polyethylene-water partitioning; PCB compilation; baseline: maximum over minimum K).
`COc1cccc2c1CCCC2CCCN1CCN(C2CCCCC2)CC1` (stereo not drawn) has a Tmax of 30 min (CD-1 mouse, male, lung; intraperitoneal, 1 mg/kg).
`CN1C(=O)[C@@H](NC(=O)c2nnc(Cc3ccccc3)[nH]2)COc2cccnc21`: “participants with TEAE leading to death” 0% (phase I single ascending dose; human, male and female; oral, 10 mg, fasted).
`C[C@@H](NC(=O)N1C(=O)[C@H](Cc2ccnc(N)c2)[C@H]1C(=O)O)C1CCCCC1` gave a decreased WBC of 0% (healthy Chinese adults; continuous intravenous infusion, 2.25 mg/kg/h, 5.0 days).
`Cc1ccc(S(=O)(=O)Nc2c(N[C@H]3CC[C@H](NC(=O)Nc4ccc(F)c(Cl)c4)CC3)c(=O)c2=O)cc1` — result for “volume of distribution”: 240 L (rat, plasma; oral, 20 mg/kg).
For `CC(C)=CC1C(C(=O)OC(C#N)c2cccc(Oc3ccccc3)c2)C1(C)C` (stereo not drawn), “enzyme contribution to clearance” read 0.8% (refers to: CYP3A4; human, age 5 years).
With `CCC[C@H]1CC[C@H](c2ccc(-c3ccc(F)cc3)cc2)CC1` the concentration was 0.91 ng/mL (refers to: compound; human pregnant women, male fetuses, cord serum; dose not given, paired maternal-cord samples, mean).
`C[C@]1(CO)Cc2ncn(-c3ccc(C#N)c(Cl)c3)c2C(=O)O1` — result for “subjects with drug-related dysgeusia”: 0% (human; 2 mg single dose).
For `Fc1ccc([C@@H]2CCNC[C@H]2COc2ccc3c(c2)OCO3)cc1`, “List of Complaints score” read 1.4 ± 2.1 (refers to: baseline complaints; healthy volunteers; oral, dose not given, -1 h before LSD; direction not given).
With `c1ccc2c(c1)c1cccc3ccc4cccc2c4c31` the log K(PDMS-water) was 5.12 ± 0.04 (fresh water; 12 (unit not given), 20 °C).
`COc1ccc(C[C@@H]2NC(=O)[C@H]([C@@H](C)O)NC(=O)[C@@H]3[C@@H]4CCN3C(=O)[C@@H]3Cc5cn(c6ccc(F)cc56)CCCCCCN(Cc5ccc(cc5)CCNC(=O)[C@]5(C)CCCN5C2=O)C(=O)CCC(=O)N[C@@H](C)C(=O)N[C@H](CNC(=O)CCCCC[N+](C)(C)C)C(=O)N[C@@H](Cc2cccc(c2)CNC(=O)CO4)C(=O)N3)cc1` — result for “participants with adverse event”: 0% (refers to: Paraesthesia; humans; concentration not given, Study-001).
For `C1=Cc2nc1cc1ccc([n-]1)c(-c1ccccc1)c1nc(cc3ccc([n-]3)c2-c2ccccc2)C=C1.CC(=O)[O-].[Mn+3]`, the plasma concentration was 38 ng/mL (LC-MS/MS; Sprague-Dawley rat, plasma; oral gavage, dose not given, 60 min, individual rat Rat1).
`Clc1ccc(-c2cc(Cl)c(Cl)c(Cl)c2Cl)cc1Cl` has a log K(PDMS-water) of 6.41 ± 0.07 (fresh water; 20 °C).

Repeated from above:
`COc1ccc2nc3cc(Cl)ccc3c(Nc3cc(CN4CCCC4)c(O)c(CN4CCCC4)c3)c2n1`: “mean corpuscular haemoglobin” 16.8 pg (mouse, blood; intraperitoneal, 57 mg/kg).
`N.N.[Cl][Pt][Cl]` gave a BUN of 33.1 ± 12 mg/dL (nude mice, serum; dose not given, 10 days).
`CC(=O)c1c(C)c2cnc(Nc3ccc(C4CCN(CCS(C)(=O)=O)CC4)cn3)nc2n(C2CCCC2)c1=O` gave a clearance of 1480 mL/min (human patients, plasma; oral, 100 mg twice daily, day 21 multiple doses).
